Assay results collected from several papers.
± marks the error that the study gave.
Organism: Plasmodium falciparum

Compound | assay | system | setting | IC50
CC(=O)c1c(O)c(C)c(O)c2c1OC1=CC(=O)C(C(C)=O)C(=O)C12C (single isomer, unassigned; (+)) | parasite growth, [3H]hypoxanthine incorporation | K1 | erythrocytic stages | 15300 nM
CCCCCCCCCCOc1cc2c(O)c(C(=O)OCC)cnc2cc1OCC | parasite growth, SYBR Green | FCB | – | < 5.7 nM
CCN(CC)CCCC(C)Nc1ccnc2cc(Cl)ccc12 (stereo not shown) | parasite growth | Dd2 kelch13 R539T, artemisinin resistant | 72 h, ring stage | 68.5 ± 0.1 nM
CC1(C)N=C(N)N=C(N)N1c1ccc(Cl)cc1 | growth, [3H]-hypoxanthine uptake | FCR3 | 48 h | 5910 ± 1620 nM
N=C(CC(O)c1cc2c(F)cc(F)cc2c2cc(C(F)(F)F)ccc12)Nc1ccc(Br)c(F)c1 (stereo not shown) | parasite growth, HRP2-ELISA | clinical isolates from Gabon | ex vivo, median | 12.2 nM
Clc1cccc(C(c2ccc3[nH]cnc3c2)n2ccnc2)c1 (stereo not shown) | growth, SYBR Green | FVO | 36 h | 29000 nM
Cl.O[C@]12C=C(c3nccc4c3[nH]c3ccccc34)[C@@H]3CCN(CCCC/C=C\CC1)C[C@@]31C[C@@H]3/C=C\CCCCN3[C@H]12 | parasite LDH | D6, chloroquine-sensitive | 72 h | 0.0061 ± 0.0024 µg/mL
CC(O)(CS(=O)(=O)c1ccc(F)cc1)C(=O)Nc1ccc(C#N)c(C(F)(F)F)c1 (stereo not shown) | SYBR Green I | 3D7 | 48 h, ring stage | > 10000 nM
O=c1c(O)c(-c2ccc(O)cc2O)oc2cc(O)cc(O)c12 | growth, SYBR green | FVO | 36 h | inactive
CCN(CC)CCCC(C)Nc1ccnc2cc(Cl)ccc12 (stereo not shown) | growth, [3H]-hypoxanthine uptake | Dd2 | 48 h | 23 ± 1 nM
CNCCC=C1c2ccccc2CCc2ccccc21 | – | 3D7 | – | 10000 nM
C[C@@H](c1cc(Cl)cc(Cl)c1)N(C)c1ncc2c(N)nc(N)nc2n1 | parasite growth, inhibitor, SYBR Green I | Cam3.1 R539T (MRA-1240) | – | 7810 nM
N=C(CC(O)c1cc2c(F)cc(F)cc2c2cc(C(F)(F)F)ccc12)Nc1cccc(F)c1 (stereo not shown) | parasite growth, HRP2-ELISA | clinical isolates from Gabon | ex vivo, median | 3.1 nM
C[C@H]1c2cccc(O)c2C(=O)C2=C(O)[C@]3(O)C(=O)C(C(N)=O)=C(O)[C@@H](N(C)C)[C@@H]3[C@@H](O)[C@@H]21 | – | D10 | – | 10000 nM
CC(C)(C)C(O)C(Oc1ccc(-c2ccccc2)cc1)n1cncn1 (stereo not shown) | parasite growth, inhibitor, SYBR Green I | Cam3.1 R539T (MRA-1240) | – | 52000 nM
CC(=O)O[C@H]1C(=O)[C@@]2(C)[C@H]([C@H](OC(=O)c3ccccc3)[C@]3(O)C[C@H](OC(=O)[C@H](O)[C@@H](NC(=O)c4ccccc4)c4ccccc4)C(C)=C1C3(C)C)[C@]1(OC(C)=O)CO[C@@H]1C[C@@H]2O | – | 3D7 | – | 79.4 nM
CO[C@H]1C[C@@H](C[C@H](C)[C@H]2CC(=O)[C@@H](C)/C=C(\C)[C@H](O)[C@H](OC)C(=O)[C@@H](C)C[C@@H](C)/C=C/C=C/C=C(\C)[C@H](OC)C[C@H]3CC[C@H](C)[C@](O)(O3)C(=O)C(=O)N3CCCC[C@@H]3C(=O)O2)CC[C@@H]1OCCO (racemic) | parasite growth, inhibitor, SYBR Green I | Cam3.1 R539T (MRA-1240) | – | 2680 nM
O=C1C(O)=C([C@H]2CC[C@H](c3ccc(Cl)cc3)CC2)C(=O)c2ccccc21 | growth | C2B | 48 h | > 25000 nM
CCN(CC)CCCC(C)Nc1ccnc2cc(Cl)ccc12 (stereo not shown) | parasite growth | D6 and W2 | – | 0.02 to 0.15 µg/mL

Compound | assay | system | setting | IC50
N=C(CC(O)c1cc2c(F)cc(F)cc2c2cc(C(F)(F)F)ccc12)Nc1ccc(Br)cc1 (stereo not shown) | – | – | – | 13 nM
COC1=CC(c2ccc[nH]2)=N/C1=C\c1[nH]c(Cc2ccc(OC(F)(F)F)cc2)cc1Cc1ccc(OC(F)(F)F)cc1 | parasite growth | DR4, artemisinin-resistant | 72 h, synchronized rings | 34.3 nM
O=C1N=c2cc(Cl)c(Cl)cc2=NC1=O | – | HB3 | – | 2510 nM
COc1cccc(N2CCN(C3=Nc4c(F)cccc4[C@H](CC(=O)O)N3c3cc(C(F)(F)F)ccc3OC)CC2)c1 | parasite growth, inhibitor, SYBR Green I | Cam3.1 R539T (MRA-1240) | – | 40500 nM
CCN(CC)CCCC(C)Nc1ccnc2cc(Cl)ccc12 (stereo not shown) | – | W2, resistant | 72 h | 0.107 ± 0.0175 µg/mL
CC(CN1c2ccccc2Sc2ccccc21)N(C)C (stereo not shown) | – | W2 | – | 2510 nM
CO[C@H]1/C=C/O[C@@]2(C)Oc3c(C)c(O)c4c(O)c(c(/C=N/N5CCN(C)CC5)c(O)c4c3C2=O)NC(=O)/C(C)=C\C=C[C@H](C)[C@H](O)[C@@H](C)[C@@H](O)[C@@H](C)[C@H](OC(C)=O)[C@@H]1C | parasite growth, inhibitor, SYBR Green I | Cam3.1 R539T (MRA-1240) | – | 5770 nM
C[C@@H]1CC[C@H]2[C@@H](C)C(=O)O[C@@H]3O[C@@]4(C)CC[C@@H]1[C@]32OO4 | parasite growth | Cam WT, compound-sensitive | 72 h | 5.9 ± 0.9 nM
CN(C)CCCN1c2ccccc2C(C)(C)c2ccccc21 | growth, SYBR Green | FVO | 36 h | 30000 nM
CN(C)CC[C@@H](c1ccc(Cl)cc1)c1ccccn1 | – | W2 | – | 1260 nM
O=C(O)/C=C/C=C/c1cccc(Oc2cc(Cl)cc(Cl)c2)c1 | parasite growth, inhibitor, SYBR Green I | Cam3.1 R539T (MRA-1240) | – | > 100000 nM
Cc1nc(-c2ccc(OCC(C)C)c(C#N)c2)sc1C(=O)O | growth, SYBR green | FVO | 36 h | inactive
N=C(CC(O)c1cc2c(F)cc(F)cc2c2cc(C(F)(F)F)ccc12)Nc1cc(F)c(F)c(F)c1 (stereo not shown) | parasite growth, HRP2 ELISA | clinical isolates from Gabon | ex vivo, range over isolates | 0.2 to 25.2 nM
CNCCC(Oc1ccccc1OC)c1ccccc1 (stereo not shown) | – | Dd2 | – | 2510 nM
COc1nc2ccc(Br)cc2cc1[C@@H](c1ccccc1)[C@@](O)(CCN(C)C)c1cccc2ccccc12 | parasite growth, inhibitor, SYBR Green I | Cam3.1 R539T (MRA-1240) | – | 720 nM
CC(C)(Sc1ccc(CCN(CCCCC2CCCCC2)C(=O)NC2CCCCC2)cc1)C(=O)O | growth, SYBR green | FVO | 36 h | inactive
Cc1cc(NCCc2ccccc2)nc(N=C(N)Nc2ccc(Cl)cc2)n1 | parasite growth, inhibitor, SYBR Green I | Cam3.1 R539T (MRA-1240) | – | 1110 nM
CC[N+](CC)(CC)CCOc1ccc(/C=C/c2ccccc2)cc1 | – | GB4 | – | 1000 nM

A few entries again:
Compound | assay | system | setting | IC50
C[C@@H]1CC[C@H]2[C@@H](C)C(=O)O[C@@H]3O[C@@]4(C)CC[C@@H]1[C@]32OO4 | parasite growth | Cam WT, compound-sensitive | 72 h | 5.9 ± 0.9 nM
N=C(CC(O)c1cc2c(F)cc(F)cc2c2cc(C(F)(F)F)ccc12)Nc1cccc(F)c1 (stereo not shown) | parasite growth, HRP2-ELISA | clinical isolates from Gabon | ex vivo, median | 3.1 nM
CC(C)(C)C(O)C(Oc1ccc(-c2ccccc2)cc1)n1cncn1 (stereo not shown) | parasite growth, inhibitor, SYBR Green I | Cam3.1 R539T (MRA-1240) | – | 52000 nM
